Experimental data of several laboratories.
Numbered parts are unrelated; each lists some results of a single study.

Sample 1 — technique: RNA Bind-n-Seq; molecule type: RNA; medium: in vitro; concentration: not given; reference: input RNA pool; direction: higher = stronger binding; quantity: bound/input enrichment
Target: RING finger protein unkempt homolog, zinc fingers 1-6, GST-SBP tag (UNK, Homo sapiens, UniProt Q9C0B0, residues 30-357)
UniProt Q9C0B0, sequence (30-357, looked up): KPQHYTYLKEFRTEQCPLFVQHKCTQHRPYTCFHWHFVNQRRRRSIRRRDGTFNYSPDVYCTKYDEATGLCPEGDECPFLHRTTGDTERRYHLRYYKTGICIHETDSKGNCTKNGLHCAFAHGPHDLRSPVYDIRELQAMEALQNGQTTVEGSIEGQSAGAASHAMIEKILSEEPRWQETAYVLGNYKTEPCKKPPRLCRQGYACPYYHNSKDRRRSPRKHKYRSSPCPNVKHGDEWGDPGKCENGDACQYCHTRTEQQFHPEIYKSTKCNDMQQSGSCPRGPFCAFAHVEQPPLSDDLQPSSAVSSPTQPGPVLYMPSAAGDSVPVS
Setting: RNA with constant flanks, human and mouse sites, ends assumed
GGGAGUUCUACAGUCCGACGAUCACCGCAGCUGCUGCGCCUAUGAUUGGCUAUCCCAUGCCAACAGGGUAUUCUCAAUAAGACUUUAGAAGUAUAUGUAAAUGUCUGUUUUUCAUAAUUGCUCUUUAUAUUGUGUGUUAUCAGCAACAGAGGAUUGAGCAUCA: 0.751 ratio
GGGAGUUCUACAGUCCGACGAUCUUGGUGGUGCAUCUAGCCGAGGUGAAAACUCCUAUGGCCUGGAAACUGUGUGCAAGGAUAUCAGGAACUUGCGAUUUGCUCAUAAACCGGAGGGGCGAACAAGAAGAUCCAUAUUUGAGACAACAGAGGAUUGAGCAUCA: 0.195 ratio
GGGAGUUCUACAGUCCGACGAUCCUCUCCACAGAAAAUUUCCAGAUCAAGCAGGAUUCUUCUACUGGCUCCUACUCCAUCAAUUUUGUUCAAAAUCCGAAUAAUAAUAGAUAACAGAAAUAACAGUCUUAAAGGCUGACUGGGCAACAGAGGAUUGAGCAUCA: 0.26 ratio
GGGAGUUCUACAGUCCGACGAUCCAAGAAGUUCAAGGAGAUGGUCCAUUUCUGGAUGGAAUUAAUGUCACAAUAAGAAGAAAUUACAUUUAUGAAGAUGCUUAUGACAAACUUUCUCCAGAAAAUGAGCCUGAUUUGAAAAAGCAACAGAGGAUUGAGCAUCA: 0.275 ratio
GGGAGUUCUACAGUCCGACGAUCAAGAAACGGCACCUGGAAGAGUCCUACGACUCCCUGAGCGAUGAGCUUGCCAGGCUCCAGGCGCACGAAACUGUACACGAGGUAGCUCUGAAAGACAAGGAGCCAGACACACAGGACGCGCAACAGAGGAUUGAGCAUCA: 0.205 ratio
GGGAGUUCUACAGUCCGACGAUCUGUAGACCAGGCUGGCCUUGAACUCAUGGAGACCUGCCUACCUCUGCCUUCUAAGUGUUGAGAUUAAUGGCGUGAGCCACCAAUUGUGAAAAAGUUGUGAACUUCCCCUCUUCCCAAAGUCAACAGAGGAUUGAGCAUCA: 0.246 ratio
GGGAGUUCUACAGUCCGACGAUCGUGACAUCUAAUGAGGUGUGAGCACGGAAGGUUCUUUUUUUCAGUGGCUCUUUUGUCAGAACUAGAGUCAGCCAUCACCCUCGCAGCAACCACCUGACUGCAGGUCAGAUCUCCCCCAGGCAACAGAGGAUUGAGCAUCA: 0.161 ratio
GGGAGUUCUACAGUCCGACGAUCUGCUUGAUUUUGGCUUGGCUCGACAAUUUACUAAUUCCUGUGGUGACGUCAGACCACCUCGUGCUGUGGCAGGCUUUCGAGGGACAGUUCGUUAUGCAUCAAUCAAUGCUCAUCGGAACACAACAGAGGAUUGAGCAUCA: 0.163 ratio

Sample 2 — technique: protein-binding microarray; molecule type: double-stranded DNA, one strand shown; medium: in vitro; concentration: 0.8 µM; setting: whole 60-bp probe, no competitor; direction: higher = stronger binding; quantity: fluorescence intensity
Target: Centromere-binding protein 1, full length, N-terminal tag (CBF1, Saccharomyces cerevisiae, UniProt P17106, residues 1-351)
UniProt P17106, sequence (whole entry, looked up): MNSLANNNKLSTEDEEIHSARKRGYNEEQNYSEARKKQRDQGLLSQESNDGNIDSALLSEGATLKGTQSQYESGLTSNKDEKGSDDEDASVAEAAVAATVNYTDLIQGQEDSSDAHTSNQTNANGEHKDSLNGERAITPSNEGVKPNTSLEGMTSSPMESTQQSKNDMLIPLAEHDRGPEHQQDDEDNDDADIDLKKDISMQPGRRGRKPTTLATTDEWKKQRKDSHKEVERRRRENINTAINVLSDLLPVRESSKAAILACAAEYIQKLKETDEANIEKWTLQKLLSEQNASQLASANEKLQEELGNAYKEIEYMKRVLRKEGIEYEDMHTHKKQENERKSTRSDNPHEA
GAATCGGCACAGGCTCACCTGGGCCTACTAATTTAGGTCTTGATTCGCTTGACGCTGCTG: 478 a.u.
GAAGAACGTTCGTGCGGGGTGATGGTTAGAAAGTAGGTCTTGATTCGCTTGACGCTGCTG: 575 a.u.
GAATAAACGGCAACCTGCGTGATAAAAACTATCTAGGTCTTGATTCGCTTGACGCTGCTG: 547 a.u.
GAAGCCTATTATGGTGAGCAGGTGAAATCCTAGTAGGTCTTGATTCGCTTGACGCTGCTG: 554 a.u.
CTAGGGCGCAACAAACACCTGATGTGACTCCTATTCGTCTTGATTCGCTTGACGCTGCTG: 702 a.u.
GAATGGGTGTGGTGTGGTGTGGGTGTGGGTGTGTAGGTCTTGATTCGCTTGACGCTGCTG: 545 a.u.
GAATTGGAGCACTCTCATGACACTAAATCAACATAGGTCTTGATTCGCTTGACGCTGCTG: 607 a.u.

Sample 3 — technique: protein-binding microarray; molecule type: double-stranded DNA, one strand shown; medium: in vitro; concentration: 2540 nM top; setting: 60-bp whole probe; with: salmon DNA 0.4 mg/ml; reference: random background probes; direction: higher = stronger binding; quantity: fitted relative affinity; all sequences stand within: GCCTAGCAC … GTCTTGATTCGCTTGACGCTGCTG
Target: Interferon regulatory factor 3, full length, phosphomimetic (IRF3, Homo sapiens, UniProt Q14653, residues 1-427, S386D/S396D/S398D/S402D/T404D/S405D)
Residues (chain): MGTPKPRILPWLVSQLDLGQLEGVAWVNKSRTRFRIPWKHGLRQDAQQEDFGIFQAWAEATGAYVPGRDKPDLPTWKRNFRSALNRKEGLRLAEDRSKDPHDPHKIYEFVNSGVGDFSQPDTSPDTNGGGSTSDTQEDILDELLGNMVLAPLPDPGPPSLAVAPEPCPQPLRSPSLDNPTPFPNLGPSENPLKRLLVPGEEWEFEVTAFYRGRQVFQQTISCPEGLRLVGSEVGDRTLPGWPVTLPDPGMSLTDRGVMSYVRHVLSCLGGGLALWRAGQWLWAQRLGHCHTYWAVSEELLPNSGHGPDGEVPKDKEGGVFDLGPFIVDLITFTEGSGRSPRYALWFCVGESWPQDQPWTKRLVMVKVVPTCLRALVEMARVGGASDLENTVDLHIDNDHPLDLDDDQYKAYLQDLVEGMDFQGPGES
TTTACTTTCTATGTCTGTTTGTGCTAG: 4.81 z-score
ATAGGTATCGGTATCGGTTAGTGCTAG: 5.52 z-score
TCATGTTGCTGTTTGAGACTGTGCTAG: 2.4 z-score
GACGGACTGGACACTGGCGACGTGCTA: -0.712 z-score
GACGAACTCAGTATCGAGACGTGCTAG: 0.374 z-score
CTAATTCTCTTTTCACTTTCGTGCTAG: 3.2 z-score
GACCGTCTCGGTTTCGGGACGTGCTAG: 4.25 z-score
CACGGTATCGGGACTGGGGACGTGCTA: 1.46 z-score
TTAGGTATCCTTTTCCTTTTGTGCTAG: 8.65 z-score
TACGATATCAGTTTCGAGACGTGCTAG: 3.48 z-score

Other studies, line by line
PhoQ, residues 284 288 289 292 302 303 AMDMFI — fold induction (PhoP, residues 12 14 15 18 19 SGWQI (Escherichia coli, UniProt P23836); Sort-seq, refers to: YFP reporter; E. coli; PhoQ-PhoP variant library, with: 10 µM Mg2+; reference: high Mg2+ state, higher = stronger signaling): 1.16

A few entries again (sample 2):
GAATCGGCACAGGCTCACCTGGGCCTACTAATTTAGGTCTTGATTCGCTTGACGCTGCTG: 478 a.u.
CTAGGGCGCAACAAACACCTGATGTGACTCCTATTCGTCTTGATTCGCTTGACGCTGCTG: 702 a.u.
